Measured values of several laboratories.
A part holds a random share of what one study measured.

Set 1 — technique: aptamer microarray, sandwich; molecule type: DNA with 2'F-ANA; sample: in vitro; tested at: 200 nM; with: Cy3 exosite-II aptamer, 400 nM; direction: higher = stronger binding; quantity: mean fluorescence intensity; sequence: GGTTGGTGTGGTTGG
Target: Prothrombin, mature alpha-thrombin (F2, Homo sapiens, UniProt P00734)
Notes: whole 15-mer aptamer, many near background
2'F-ANA at 1 4 5 8 9 11 12 13: 77.9 a.u.
2'F-ANA at 2 3 4 5 6 7 8 9 10: 49.6 a.u.
2'F-ANA at 3 5 6 7 8 9 12 14: 63.3 a.u.
2'F-ANA at 3 4 5 7 8 9 10 11 12 13: 58.5 a.u.
2'F-ANA at 1 5 7 8 9 10 14 15: 131 a.u.
2'F-ANA at 1 3 4 6 7 8 10: 66.1 a.u.
2'F-ANA at 1 5 7 10 11 15: 48.6 a.u.
2'F-ANA at 4 5 9: 79.9 a.u.
2'F-ANA at 1 3 5 6 9 12 13 14: 45.6 a.u.

Set 2 — technique: RNA Bind-n-Seq; molecule type: RNA; sample: in vitro; tested at: 20 nM; notes: 6-mer, flanks averaged, single round; with: 150 mM KCl; reference: input library; direction: higher = stronger binding; quantity: 6-mer enrichment (R)
Target: TAR DNA-binding protein 43, full length, His tag (TARDBP, Homo sapiens, UniProt Q13148, residues 1-414)
GAUUAC: 0.601
CAGGGC: 2.21
AAUUGA: 0.659
AGUUAG: 0.811
CUUCGU: 0.561
CGGCUG: 1.39
CGGGCA: 2.2
CAUACU: 0.566
CUCCUU: 0.597

Set 3 — technique: protein-binding microarray; molecule type: double-stranded DNA, one strand shown; sample: in vitro; tested at: 0.8 µM; notes: whole 60-bp probe, no competitor; direction: higher = stronger binding; quantity: fluorescence intensity; all sequences stand within: … GTCTTGATTCGCTTGACGCTGCTG
Target: Centromere-binding protein 1, full length, N-terminal tag (CBF1, Saccharomyces cerevisiae, UniProt P17106, residues 1-351)
Sequence of UniProt P17106 (whole entry, looked up): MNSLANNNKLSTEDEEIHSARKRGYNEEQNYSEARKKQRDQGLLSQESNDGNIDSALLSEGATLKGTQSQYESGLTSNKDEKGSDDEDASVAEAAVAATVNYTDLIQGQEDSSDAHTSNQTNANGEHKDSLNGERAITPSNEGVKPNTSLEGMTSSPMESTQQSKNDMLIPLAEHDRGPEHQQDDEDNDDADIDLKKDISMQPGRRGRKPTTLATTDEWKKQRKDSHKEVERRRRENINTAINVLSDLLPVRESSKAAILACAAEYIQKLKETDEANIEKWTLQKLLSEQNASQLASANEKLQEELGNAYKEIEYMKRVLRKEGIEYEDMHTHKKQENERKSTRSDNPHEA
CTAGATAGAATGCAATACATCATGTAGTTCTGTTTC: 483 a.u.
GAATTAGTATAAAGTCACGCAAACGGATCTCTGTAG: 711 a.u.
TGTACGAAGCTATTATGCGTGCGTATAGTAGTTAGG: 542 a.u.
CTAAGGAGGGATAGACGCACGACACTATCTGGTTTC: 510 a.u.
GAAAGTCGGAACTATCACGTAGTTTGAAAATGTTAG: 604 a.u.
CTATGCATTGATAATCTCCTGACCCTAGGTCGTTTC: 575 a.u.

Other studies, line by line
PhoQ, residues 284 288 289 292 302 303 SLGVVW  fold induction (PhoP, residues 12 14 15 18 19 AQCLL (Escherichia coli, UniProt P23836); Sort-seq, measured: YFP reporter; E. coli; PhoQ-PhoP variant library, with: 10 µM Mg2+; reference: high Mg2+ state, higher = stronger signaling): 10.7

Repeated from above (set 3):
CTAGATAGAATGCAATACATCATGTAGTTCTGTTTC: 483 a.u.
GAATTAGTATAAAGTCACGCAAACGGATCTCTGTAG: 711 a.u.
TGTACGAAGCTATTATGCGTGCGTATAGTAGTTAGG: 542 a.u.
CTAAGGAGGGATAGACGCACGACACTATCTGGTTTC: 510 a.u.
